# Measurements collected from several papers.
# Values joined by “and” are separate records of one study, mostly repeats; a detail may differ. ± marks the error that the study gave.
SMILES,target or system,assay,system,setting,quantity,result
Cc1cc(C(C)(C)c2ccc(O)c(C)c2)ccc1O,"HepG2 spheroids, dissociated",annexin V-FITC/PI flow cytometry,,"0.1 µM, 24 h",early apoptotic cells,12.5 ± 2.1%
CCOC(=O)N1CCC(=C2c3ccc(Cl)cc3CCc3cccnc32)CC1,Plasmodium falciparum,,7G8,,IC50,2 µM
CC(C)C[C@H](NC(=O)[C@H](C)NC(=O)[C@H](CCCNC(=N)N)NC(=O)[C@H](CC(C)C)NC(=O)[C@H](CC(C)C)NC(=O)[C@H](CCCNC(=N)N)NC(=O)[C@@H]1CCCN1C(=O)[C@H](CC(C)C)NC(=O)[C@H](CC(=O)O)NC(=O)[C@H](CCCNC(=N)N)NC(=O)[C@H](CC(C)C)NC(=O)[C@H](CC(C)C)NC(=O)[C@H](CCCNC(=N)N)NC(=O)[C@H](Cc1ccc(O)cc1)NC(=O)[C@H](CCCNC(=N)N)NC(=O)[C@@H]1CCCN1C(=O)[C@H](CC(C)C)NC(=O)[C@H](C)NC(=O)[C@H](CCCNC(=N)N)NC(=O)[C@@H](N)CC(C)C)C(=O)N[C@@H](CC(=O)O)C(=O)N[C@@H](C)C(=O)N[C@@H](CCCNC(=N)N)C(=O)N1CCC[C@H]1C(=O)N[C@@H](Cc1ccccc1)C(=O)N[C@@H](C)C(=O)N[C@@H](CCC(=O)O)C(=O)N[C@@H](C)C(=O)N[C@H](C(=O)N[C@@H](CO)C(=O)N[C@@H](Cc1c[nH]c2ccccc12)C(=O)NCC(=O)N[C@@H](CCCNC(=N)N)C(=O)N[C@@H](CC(C)C)C(=O)NCC(=O)N[C@@H](C)C(=O)N[C@@H](CCCNC(=N)N)C(=O)N[C@@H](CCC(N)=O)C(=O)N[C@@H](CCCNC(=N)N)C(=O)N[C@@H](CCCNC(=N)N)C(=O)N[C@@H](CCC(N)=O)C(=O)N[C@@H](CO)C(=O)N[C@@H](CCCNC(=N)N)C(=O)O)[C@@H](C)O,PMA-differentiated THP-1,"cell viability, MTT",,24 h,CC50,21.2 µM
O=C(Nc1ccc(Oc2ccc(Cl)cc2)c(Cl)c1)c1cc(I)cc(I)c1O,pigeon embryo fibroblasts,,,,CC50,35 µM
CC(C)(c1ccc(O)cc1)c1ccc(O)cc1,"HepG2 spheroids, dissociated",annexin V-FITC/PI flow cytometry,,"0.01 µM, 96 h",late apoptotic cells,19 ± 3.18%
C[C@]12N[C@H](Cc3ccccc31)c1ccccc12,Plasmodium falciparum,,Dd2,,IC50,10 µM
Cc1cccn2c(=O)c3cc(C(=O)Nc4ccc(N(C)C)cc4)n(C)c3nc12,Vero,MTT,,"100 µM, 24 (unit not given)",viability,49.1%
CC[C@H](C)[C@H](NC(=O)[C@H](CCCNC(=N)N)NC(=O)[C@H](Cc1c[nH]c2ccccc12)NC(=O)[C@H](CCCNC(=N)N)NC(=O)[C@H](Cc1c[nH]c2ccccc12)NC(=O)[C@H](Cc1c[nH]c2ccccc12)NC(=O)[C@H](Cc1c[nH]c2ccccc12)NC(=O)[C@H](CCCNC(=N)N)NC(=O)[C@H](Cc1c[nH]c2ccccc12)NC(=O)[C@H](CCCNC(=N)N)NC(=O)CN)C(N)=O,PK-15,,,,LC50,92.3 µM
O=c1ccc2ccccc2o1,HepG2,cell membrane permeability,,"concentration not given, 24 h, necrosis and apoptosis panel",chance response,0.07%
NC(=O)c1ncn([C@@H]2O[C@H](CO)[C@@H](O)[C@H]2O)n1,HeLa,cell morphology alteration,,,minimum cytotoxic concentration,> 250 µM
CC(C)C[C@H](NC(=O)[C@H](C)NC(=O)[C@@H](NC(=O)[C@H](CCCNC(=N)N)NC(=O)[C@H](CC(C)C)NC(=O)[C@H](Cc1c[nH]c2ccccc12)NC(=O)[C@@H]1CCCN1C(=O)[C@@H](N)CCCCN)C(C)C)C(=O)N[C@@H](CS)C(=O)N1CCC[C@H]1C(=O)NCC(=O)O,H9c2,WST-1,,"64 µM, 24 h",viability,92.1% and 103% and 87.2%
CC(C)C[C@H](NC(=O)OCc1ccccc1)C(=O)N[C@@H](CC(C)C)C(=O)N[C@@H](CC1CCNC1=O)C(=O)C(=O)NC1CC1 (some centres unmarked),RD,,,5 (unit not given),CC50,85.3 ± 7.8 µM
CC(c1ccccc1)(c1ccc(O)cc1)c1ccc(O)cc1,"HepG2 spheroids, dissociated",annexin V-FITC/PI flow cytometry,,"0.1 µM, 24 h",viable cells,73.5 ± 8.14%
C[C@@H]1O[C@@H](O[C@H]2C[C@@H](O)[C@]3(CO)[C@H]4[C@H](O)C[C@]5(C)[C@@H](C6=CC(=O)OC6)CC[C@]5(O)[C@@H]4CC[C@]3(O)C2)[C@H](O)[C@H](O)[C@H]1O,PH5CH8 hepatocytes,high-content cell count,,"72 h, oleate lipid loaded",CC50,0.023 µM

# Repeated from above:
SMILES,target or system,assay,system,setting,quantity,result
Cc1cc(C(C)(C)c2ccc(O)c(C)c2)ccc1O,"HepG2 spheroids, dissociated",annexin V-FITC/PI flow cytometry,,"0.1 µM, 24 h",early apoptotic cells,12.5 ± 2.1%
